Results of several laboratories.
Lines come from different studies, so protocols differ. ± marks the error that the study gave.
qscR DNA-bound: qscR, DNA-bound (Pseudomonas aeruginosa, UniProt G3XD77)
TNS3 SH2 domain: Tensin-3, SH2 domain (TNS3, Homo sapiens, UniProt Q68CZ2)
Chain of UniProt Q68CZ2 (whole entry, looked up): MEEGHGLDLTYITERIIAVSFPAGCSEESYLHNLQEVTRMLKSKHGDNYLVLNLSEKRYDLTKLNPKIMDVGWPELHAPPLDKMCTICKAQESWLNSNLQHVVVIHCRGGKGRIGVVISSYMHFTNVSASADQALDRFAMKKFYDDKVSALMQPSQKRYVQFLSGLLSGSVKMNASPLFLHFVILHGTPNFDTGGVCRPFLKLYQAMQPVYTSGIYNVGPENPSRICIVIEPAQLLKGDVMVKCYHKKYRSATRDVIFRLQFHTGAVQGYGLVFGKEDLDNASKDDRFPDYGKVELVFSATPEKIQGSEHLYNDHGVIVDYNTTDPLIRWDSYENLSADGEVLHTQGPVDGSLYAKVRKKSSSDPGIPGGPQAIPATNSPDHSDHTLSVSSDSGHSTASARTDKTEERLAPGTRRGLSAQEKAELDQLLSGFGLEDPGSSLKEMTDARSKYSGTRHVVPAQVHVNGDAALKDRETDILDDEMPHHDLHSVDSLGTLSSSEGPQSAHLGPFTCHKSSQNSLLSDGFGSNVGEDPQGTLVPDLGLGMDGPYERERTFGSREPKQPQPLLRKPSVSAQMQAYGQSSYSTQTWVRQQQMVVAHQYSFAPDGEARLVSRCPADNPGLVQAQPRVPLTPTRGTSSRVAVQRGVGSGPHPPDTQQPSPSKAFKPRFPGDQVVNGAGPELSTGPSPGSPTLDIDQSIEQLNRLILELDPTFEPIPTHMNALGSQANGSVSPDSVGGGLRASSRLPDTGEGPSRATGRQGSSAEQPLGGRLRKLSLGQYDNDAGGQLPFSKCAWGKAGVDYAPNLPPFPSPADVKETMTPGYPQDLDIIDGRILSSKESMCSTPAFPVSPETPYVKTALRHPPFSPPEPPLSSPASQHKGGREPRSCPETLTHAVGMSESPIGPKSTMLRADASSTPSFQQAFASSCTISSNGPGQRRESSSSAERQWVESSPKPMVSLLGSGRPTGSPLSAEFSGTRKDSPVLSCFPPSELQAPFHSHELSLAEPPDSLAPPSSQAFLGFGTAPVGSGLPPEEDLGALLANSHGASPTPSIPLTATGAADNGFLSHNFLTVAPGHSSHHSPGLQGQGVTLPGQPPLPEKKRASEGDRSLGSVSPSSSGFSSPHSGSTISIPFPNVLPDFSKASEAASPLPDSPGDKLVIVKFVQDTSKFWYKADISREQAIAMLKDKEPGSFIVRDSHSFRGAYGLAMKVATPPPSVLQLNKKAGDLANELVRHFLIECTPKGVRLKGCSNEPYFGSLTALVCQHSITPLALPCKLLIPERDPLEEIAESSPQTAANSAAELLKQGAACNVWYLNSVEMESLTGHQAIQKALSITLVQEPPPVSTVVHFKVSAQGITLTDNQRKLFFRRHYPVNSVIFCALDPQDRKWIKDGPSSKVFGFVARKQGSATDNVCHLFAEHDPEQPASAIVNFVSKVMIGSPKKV
Chain of UniProt Q15131 (whole entry, looked up): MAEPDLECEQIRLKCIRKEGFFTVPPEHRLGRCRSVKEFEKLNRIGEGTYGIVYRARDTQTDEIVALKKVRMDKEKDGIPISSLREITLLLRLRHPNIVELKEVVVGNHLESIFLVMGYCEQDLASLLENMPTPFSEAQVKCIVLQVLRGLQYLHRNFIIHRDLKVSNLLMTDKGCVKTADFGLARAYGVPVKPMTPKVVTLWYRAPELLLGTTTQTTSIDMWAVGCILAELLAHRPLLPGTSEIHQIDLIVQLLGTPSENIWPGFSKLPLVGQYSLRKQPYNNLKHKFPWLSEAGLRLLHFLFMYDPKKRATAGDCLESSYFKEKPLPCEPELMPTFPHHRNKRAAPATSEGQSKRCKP

| Compound | target | test | system | conditions | Kd [nM] |
| --- | --- | --- | --- | --- | --- |
| CCCCCCCCCC(=O)NC1CCCC1 | qscR DNA-bound | DNA binding, ligand, EMSA |  | 4 °C, saturating ligand | 8.34 |
| CC[C@H](CO)Nc1nc(NCc2ccc(-c3ccccn3)cc2)c2ncn(C(C)C)c2n1 | CDK10 (Homo sapiens, UniProt Q15131) | binding, competition affinity chromatography | SH-SY5Y cell extract |  | 3050 |
| CC[C@H](C)[C@H](NC(=O)[C@H](Cc1ccc(OP(=O)(O)O)cc1)NC(=O)[C@H](CCC(=O)O)NC(=O)[C@H](Cc1c[nH]cn1)NC(=O)CNC(=O)[C@H](CC(=O)O)NC(=O)[C@H](CO)NC(=O)[C@H](CO)NC(=O)[C@@H](NC(=O)[C@H](CO)NC(=O)[C@H](CCC(=O)O)NC(=O)c1ccc2c(c1)C(=O)OC21c2ccc(N(C)C)cc2Oc2cc(N(C)C)ccc21)C(C)C)C(=O)N[C@@H](Cc1ccc(O)cc1)C(=O)N[C@H](C(=O)N[C@@H](CC(=O)O)C(=O)N1CCC[C@H]1C(=O)N[C@@H](CCSC)C(=O)N[C@@H](CCC(N)=O)C(=O)N[C@@H](CC(=O)O)C(=O)O)C(C)C | TNS3 SH2 domain | binding |  |  | 1400 |
| CC(=O)N[C@H]1[C@@H](O[C@H]2[C@@H](O)[C@@H](CO)OC(O)[C@@H]2O[C@@H]2O[C@@H](C)[C@@H](O)[C@@H](O)[C@@H]2O)O[C@H](CO)[C@H](O)[C@@H]1O (some centres unmarked) | Vicia villosa lectin | binding |  | 2 h | > 2240 |
| CCN(CC)c1ccc2c(-c3ccccc3C(=O)O)c3ccc(=[N+](CC)CC)cc-3oc2c1 | Phenylalanine-4-hydroxylase (phhA, Chromobacterium violaceum, UniProt P30967, F107L/P134L/W180A/Y130S/Y179W) |  |  |  | 89000 |
| N=C(N)NCCC[C@H](N)C(=O)O | uncharacterized protein (Pelagibacter ubique, UniProt Q4FLC2) | binding, competition isothermal titration calorimetry | Candidatus Pelagibacter ubique | with: octopine competitor | 0.055 ± 0.036 |
| CC(=O)N[C@H]1[C@@H](OC[C@H](NC(=O)[C@H](CO)NC(C)=O)C(=O)N[C@@H](CO)C(=O)NCC(=O)O)O[C@H](CO)[C@H](O)[C@@H]1O | Helix pomatia agglutinin | glycan microarray |  | 4 glycans per BSA | 1.9 ± 0.5 |
| CC[C@H](C)[C@H](NC(=O)CNC(=O)[C@H](CC(=O)O)NC(=O)[C@H](Cc1ccc(OP(=O)(O)O)cc1)NC(=O)[C@@H]1CCCN1C(=O)[C@H](CCCCN)NC(=O)[C@H](CO)NC(=O)CNC(=O)[C@H](Cc1ccccc1)NC(=O)[C@@H](NC(=O)[C@H](CCSC)NC(=O)[C@H](CC(C)C)NC(=O)[C@H](CCC(=O)O)NC(=O)c1ccc2c(c1)C(=O)OC21c2ccc(N(C)C)cc2Oc2cc(N(C)C)ccc21)[C@@H](C)O)C(=O)N1CCC[C@H]1C(=O)N[C@@H](C)C(=O)N[C@@H](CO)C(=O)N[C@@H](CCC(=O)O)C(=O)N[C@@H](CC(=O)O)C(=O)O | Tyrosine-protein kinase SYK, SH2 domains (SYK, Homo sapiens, UniProt P43405) | binding |  |  | 1550 |
| Nc1ncnc2c1ncn2[C@@H]1O[C@H](COP(=O)(O)OP(=O)(O)O)[C@@H](O)[C@H]1O | Cell cycle histidine kinase CckA, cytoplasmic region (Caulobacter vibrioides, UniProt Q9X688) | isothermal titration calorimetry | Caulobacter crescentus | 25 °C, with: without c-di-GMP | 530000 |
| CC(C)C[C@H](NC(=O)[C@@H](NC(=O)[C@H](CO)NC(=O)[C@H](CO)NC(=O)[C@@H](NC(=O)[C@H](CC(=O)O)NC(=O)[C@H](CC(C)C)NC(=O)[C@@H]1CCCN1C(=O)[C@H](CO)NC(=O)c1ccc2c(c1)C(=O)OC21c2ccc(N(C)C)cc2Oc2cc(N(C)C)ccc21)[C@@H](C)O)C(C)C)C(=O)N[C@@H](Cc1ccc(OP(=O)(O)O)cc1)C(=O)N[C@H](C(=O)N[C@@H](C)C(=O)N[C@H](C(=O)N[C@@H](CCC(N)=O)C(=O)N1CCC[C@H]1C(=O)N[C@@H](CC(N)=O)C(=O)N[C@@H](CCC(=O)O)C(=O)N[C@@H](CC(=O)O)C(=O)O)C(C)C)[C@@H](C)O | TNS3 SH2 domain | binding |  |  | 966 |
| CCCCCCCCCCCC(=O)N[C@H]1CCOC1=O | qscR DNA-bound | DNA binding, ligand, EMSA |  | 4 °C, saturating ligand | 6.81 |

For quick reference, copied from above:
| Compound | target | test | system | conditions | Kd [nM] |
| --- | --- | --- | --- | --- | --- |
| Nc1ncnc2c1ncn2[C@@H]1O[C@H](COP(=O)(O)OP(=O)(O)O)[C@@H](O)[C@H]1O | Cell cycle histidine kinase CckA, cytoplasmic region (Caulobacter vibrioides, UniProt Q9X688) | isothermal titration calorimetry | Caulobacter crescentus | 25 °C, with: without c-di-GMP | 530000 |
